Measured values collected from several papers.
Numbered parts are unrelated; each lists some results of a single study. Substitutions count along the parent as printed.

Block 1 — method: RNA Bind-n-Seq; form: RNA; medium: in vitro; tested at: 200 nM; setting: whole 134-nt RNA, ends assumed; together with: 150 mM KCl; baseline: input library; reading: higher = stronger binding; measurement: log2 enrichment
Target: Fragile X messenger ribonucleoprotein 1, C-terminal low-complexity region (Fmr1, Mus musculus, UniProt P35922)
All sequences stand within: GGGAGUUCUACAGUCCGACGAUC … UGGAAUUCUCGGGUGUCAAGG
Oligonucleotide = UUACUAGAAAAGGCAGAAGCCCGUGAACGUGAAAGAGAAAAAGAAGAGGCUCGGAAGAUGAAACGAAAAGAAUCUGCAUUUAAGAGUAUG; value = -1.47
Oligonucleotide = UGUGCUACACAUCGUAUGUACCGAAUCGGGGUUUUUUUGGGGAAAAAGGGGUUUUUUUGGGGAAAGUAUUAUGUUACGCCGUUCGGAUCU; value = 0.391
Oligonucleotide = UCCUGUGCUACACAUCGUAUGUACCGAAUCGGGUUUUUUGGGUUUUUUGGGGUUUUUUGGAAAGUAUUAUGUUACGCCGUUCGGAUCUGC; value = 0.233
Oligonucleotide = UGGCCCUGGUGGCCUGCGGGGAGGAAGAGGUGGCCUCAUGGAUCGUGGUGGUCCCGGUGGAAUGUUCAGAGGUGGCCGUGGUGGAGACAG; value = 0.0772
Oligonucleotide = UGGCCCUGGUGGCAUGCGGGGAGGAAGAGGUGGCCUCAUGGAUCGUGGUGGUCCAGGUGGAAUGUUCAGAGGUGGCCGUGGUGGAGACAG; value = 0.0866
Oligonucleotide = AGUCCUGUGCUACACAUCGUAUGUACCGAAUCGGGGUUUUUGGGGUGGGGAAAGGGGAAAGUAUUAUGUUACGCCGUUCGGAUCUGCACU; value = 0.65

Block 2 — method: RNAcompete; form: RNA; medium: in vitro; tested at: 20 nM; setting: 7-mer, probes averaged, single round; baseline: mean of 7-mers; reading: higher = stronger binding; measurement: 7-mer Z-score
Target: PABPC1L2, full length, GST fusion (mouse, UniProt A0ABA7IW68)
Residues (chain): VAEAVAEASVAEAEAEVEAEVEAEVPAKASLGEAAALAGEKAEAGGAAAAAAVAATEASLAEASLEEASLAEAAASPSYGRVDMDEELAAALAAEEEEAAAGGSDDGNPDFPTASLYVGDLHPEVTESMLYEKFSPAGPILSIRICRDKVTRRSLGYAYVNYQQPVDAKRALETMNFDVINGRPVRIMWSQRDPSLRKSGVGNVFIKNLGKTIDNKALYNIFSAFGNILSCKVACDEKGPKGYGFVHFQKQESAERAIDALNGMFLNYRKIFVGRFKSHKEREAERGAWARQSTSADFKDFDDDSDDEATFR
Oligonucleotide = ACAAACG; value = 0.599
Oligonucleotide = GAAUGUG; value = -0.137
Oligonucleotide = GGGCUCG; value = 0.0787
Oligonucleotide = UACCCGG; value = -0.213
Oligonucleotide = GAUAAUU; value = -0.0482
Oligonucleotide = UCACCUC; value = -0.403
Oligonucleotide = GCGCAUA; value = 0.0134
Oligonucleotide = GUCGAUA; value = -0.32
Oligonucleotide = UGUCGCG; value = -0.371

Block 3 — target: CCNA1, cyclin fold, Cln2 fusion (human); method: yeast growth competition, sequencing; medium: yeast; setting: weak parent motif; baseline: not given; reading: higher = stronger binding; measurement: normalised enrichment score
Starting sequence: E2F1 docking peptide (human); PPVKRRLDLETDH
Change = PPVKRHLDLETDH [R6H]; value = 0.285
Change = PPVKRRLDLHTDH [E10H]; value = 0.803
Change = PPVKRRLDLDTDH [E10D]; value = 0.922
Change = PPVKNRLDLETDH [R5N]; value = 0.366
Change = PPVYRRLDLETDH [K4Y]; value = 0.582

Further values, each from its own experiment
Molecule = PhoQ, residues 284 288 289 292 302 303 ASVMEA; target = PhoP, residues 12 14 15 18 19 SEGLL (Escherichia coli, UniProt P23836); test = Sort-seq, item: YFP reporter; test system = E. coli; setting = PhoQ-PhoP variant library, together with: 10 µM Mg2+; scale = baseline: high Mg2+ state, higher = stronger signaling; measurement = fold induction; value = 5.38

Excerpt of the above (block 1):
Oligonucleotide = UCCUGUGCUACACAUCGUAUGUACCGAAUCGGGUUUUUUGGGUUUUUUGGGGUUUUUUGGAAAGUAUUAUGUUACGCCGUUCGGAUCUGC; value = 0.233
Oligonucleotide = UUACUAGAAAAGGCAGAAGCCCGUGAACGUGAAAGAGAAAAAGAAGAGGCUCGGAAGAUGAAACGAAAAGAAUCUGCAUUUAAGAGUAUG; value = -1.47
Oligonucleotide = UGUGCUACACAUCGUAUGUACCGAAUCGGGGUUUUUUUGGGGAAAAAGGGGUUUUUUUGGGGAAAGUAUUAUGUUACGCCGUUCGGAUCU; value = 0.391
